Measurements from different studies.
Parts stem from different laboratories: compare values within a part only.

Set 1 — effect on: enzyme activity; action: inhibitor; concentration: 20 µM; notes: hit confirmation, no DTT
Target: Replicase polyprotein 1ab, main protease (rep, Severe acute respiratory syndrome coronavirus 2, UniProt P0DTD1)
SMILES	inhibition [%]
C[C@@H](CN1CC(=O)NC(=O)C1)N1CC(=O)NC(=O)C1	98.6
NC(Cc1cc(O)c(O)cc1O)C(=O)O (racemic)	83.9
O=NN(CCCl)C(=O)NC1CCCCC1	52.5
CN(C)C(=S)SSC(=S)N(C)C	99.9

Set 2 — cell line: HEK-293T; effect on: pseudovirus infection; organism: VSV pseudotyped with SARS-CoV-2 spike; concentration: 10 µM; time: 16 h; relative to: vehicle-treated
Compound	GFP-positive cells [%]
Cc1ccc(=O)n(-c2ccccc2)c1	84.2
C[C@]12CC[C@H]3[C@@H](CCC4=CC(=O)CC[C@@H]43)[C@@H]1CC[C@@H]2O	84.2
CCCCN(CCCC)CC(O)c1cc(Cl)cc2c1-c1ccc(Cl)cc1/C2=C/c1ccc(Cl)cc1 (stereo not drawn)	76
O=C(NC1CCN(CCCCC2(C(=O)NCC(F)(F)F)c3ccccc3-c3ccccc32)CC1)c1ccccc1-c1ccc(C(F)(F)F)cc1	22.1
CS(=O)(=O)CCNCc1ccc(-c2ccc3ncnc(Nc4ccc(OCc5cccc(F)c5)c(Cl)c4)c3c2)o1	22.7
Nc1ccn(C[C@@H](CO)OCP(=O)(O)O)c(=O)n1	88.2

Set 3 — technique: protein-binding microarray; form: double-stranded DNA, one strand shown; medium: in vitro; concentration: 0.8 µM; notes: whole 60-bp probe, no competitor; reading: higher = stronger binding
Target: Centromere-binding protein 1, full length, N-terminal tag (CBF1, Saccharomyces cerevisiae, UniProt P17106, residues 1-351)
UniProt P17106, sequence (whole entry, looked up): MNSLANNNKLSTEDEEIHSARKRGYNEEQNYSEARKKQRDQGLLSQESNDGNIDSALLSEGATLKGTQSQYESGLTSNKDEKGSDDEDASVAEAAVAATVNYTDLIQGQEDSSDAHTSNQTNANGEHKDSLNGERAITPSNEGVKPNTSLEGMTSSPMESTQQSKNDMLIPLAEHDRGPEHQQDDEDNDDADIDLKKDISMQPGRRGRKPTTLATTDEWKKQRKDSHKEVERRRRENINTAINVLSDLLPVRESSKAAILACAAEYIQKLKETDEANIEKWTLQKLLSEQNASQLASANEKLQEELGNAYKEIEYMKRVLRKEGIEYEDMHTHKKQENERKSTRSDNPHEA
Strand	fluorescence intensity
TGTACGAAGCTATGTTTCGTGCATATAGTAGTTAGGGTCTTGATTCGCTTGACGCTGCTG	518 a.u.
TGTACGAAGCTATAACACGTGTGTATAGTAGTTAGGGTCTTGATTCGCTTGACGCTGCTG	6390 a.u.
CTATTGTTAGAAATTCACGGGATTTATTCGTGATTCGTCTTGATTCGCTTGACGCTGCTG	653 a.u.
CTATCCGTGGTGCGTGATCTGATGAGAAATAAATTCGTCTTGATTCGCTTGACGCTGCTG	1200 a.u.
GAAAAGCCATCATCTTGTCAGCTGTTGTCTTGCTAGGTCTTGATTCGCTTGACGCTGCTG	587 a.u.
GAATCATGCTGCCGGCACGTAGTACTTGCAGCTTAGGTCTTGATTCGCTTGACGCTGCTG	505 a.u.
GAAAATTGAAAAATTAACGTGGACCCTGGGAAGTAGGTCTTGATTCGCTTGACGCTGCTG	546 a.u.
GAATATAGCTACACTCTCAACTGATTGCTTCACTAGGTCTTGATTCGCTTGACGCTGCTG	485 a.u.

Set 4 — technique: universal PBM; form: double-stranded DNA, one strand shown; medium: in vitro; concentration: not given; reading: higher = stronger binding
Target: Sal-like protein 4, full length isoform B (SALL4, Homo sapiens, UniProt Q9UJQ4-2, residues 1-616)
Notes: 8-mer, flanks averaged, mean of replicates
Strand	E-score
AGACGAGC	-0.118
AATCTGGG	-0.042
ACGCATTA	0.163
ATGTGCAC	-0.0048
ACGTAGAT	0.107
CGAAGATA	0.123
CGGCTCCA	-0.267
CTGTGCGA	-0.0171

Set 5 — effect on: enzyme activity; action: inhibitor; concentration: 20 µM
Target: Replicase polyprotein 1ab, polymerase (rep, Severe acute respiratory syndrome coronavirus 2, UniProt P0DTD1)
SMILES	inhibition
CCn1c(-c2nonc2N)nc2cnc(Oc3cccc(NC(=O)c4ccc(OCCN5CCOCC5)cc4)c3)cc21	5.36%
CCCc1cc(C(N)=S)ccn1	4.09%
Cc1cc2nc3c(=O)[nH]c(=O)nc-3n(C[C@H](O)[C@H](O)[C@H](O)CO)c2cc1C	15.7%
CCC(=O)OCC(=O)[C@@]1(OC(=O)CC)[C@H](C)C[C@H]2[C@H]3[C@H]([C@@H](O)C[C@@]21C)[C@@]1(C)C=CC(=O)C=C1C[C@H]3Cl	-0.42%
COc1cc2c(Oc3ccc4[nH]c(C)cc4c3F)ccnc2cc1OCC1(N)CC1	-6.92%
Cc1cccc(C)c1NC(=O)C[N+](C)(C)C	4.42%
Nc1nc(NCCNc2ncc(-n3ccnc3)c(-c3ccc(Cl)cc3Cl)n2)ccc1[N+](=O)[O-]	-6.32%
CNC(=O)c1ccccc1Nc1nc(Nc2ccc(N3CCOCC3)cc2OC)ncc1Cl	-17.5%
Nc1ncnc2c1c(-c1ccc(Oc3ccccc3)cc1)nn2C1CCCC1	-20.7%
O=C(O)c1cc(=O)c2ccccc2[nH]1	-7.54%
O=C(O)C(Cl)Cl	1.66%
CN(Cc1cc(Br)cc(Br)c1N)C1CCCCC1	-2.77%
Cc1cn2nc([C@@H]3CCCCN3C(=O)c3cc(Cl)ccc3NS(C)(=O)=O)cc2nc1N1CC[C@H](N)C1	-3.56%
CC1(C)CCC2=C(O1)c1ccccc1C(=O)C2=O	25.4%
COc1cc(OC)c(/C=C/S(=O)(=O)Cc2ccc(OC)c(OP(=O)(O)O)c2)c(OC)c1	2.45%
C[C@]12CC[C@H](O)C[C@H]1CC[C@@H]1[C@@H]2CC[C@]2(C)[C@@H](C3=CC(=O)OC3)CC[C@]12O	1.99%
O=C(Nc1ccc(F)cc1)N1CCc2ccccc2C1c1ccc(C(F)(F)F)cc1 (stereo not drawn)	-2.64%
CC(C)N1CCN(c2ccc(C(=O)c3c(-c4ccc(O)cc4)sc4cc(O)ccc34)cc2)CC1	-1.71%
C[C@@H](Oc1cc(-n2cnc3ccc(CN4CCN(C)CC4)cc32)sc1C(N)=O)c1ccccc1C(F)(F)F	2.11%
CCCCCCCCC(=O)NCc1ccc(O)c(OC)c1	0.49%
COc1cc(/C=C(\C#N)C(N)=O)cc(CSc2nc3ccccc3s2)c1O	8.94%
Cc1c(C(=O)NCc2cccnc2)nn(-c2ccc(Cl)cc2Cl)c1-c1ccc(Cl)cc1	0.72%
CC(C)NNC(=O)c1ccncc1	16.7%
CCOC(=O)c1c(CSc2ccccc2)n(C)c2cc(Br)c(O)c(CN(C)C)c12	2.05%
N[C@@H](CCC(=O)N[C@@H](CSN=O)C(=O)NCC(=O)O)C(=O)O	-8.85%
